Experimental data from different studies.
Protocols differ between the studies behind these lines. Numbers after ± are the reported error.
rep main protease: Replicase polyprotein 1ab, main protease (rep, Severe acute respiratory syndrome coronavirus 2, UniProt P0DTD1)
rep nsp14: Replicase polyprotein 1ab, nsp14 (rep, Severe acute respiratory syndrome coronavirus 2, UniProt P0DTD1)

With `O=c1oc2cc(O)ccc2c2cc(O)c(O)cc12` the Kd was 6.7 ± 0.7 µM (rep main protease; binding).
`CCCCCCCCCCCCCCCC(=O)N[C@@H](CCC(=O)NCCOCCOCCC(=O)NCCOCCOCCC(=O)NCCCC[C@H](NC(=O)[C@H](CC(=O)O)NC(=O)[C@H](CC(C)C)NC(=O)[C@H](Cc1ccc(O)cc1)NC(=O)[C@H](CCCCN)NC(=O)[C@H](CO)NC(=O)[C@H](Cc1ccc(O)cc1)NC(=O)[C@H](CC(=O)O)NC(=O)[C@H](CO)NC(=O)[C@@H](NC(=O)[C@H](Cc1ccccc1)NC(=O)[C@@H](NC(=O)CNC(=O)[C@H](CCC(N)=O)NC(=O)[C@@H](CO)NC(=O)[C@@H](N)Cc1c[nH]cn1)[C@@H](C)O)[C@@H](C)O)C(=O)N[C@@H](CCCNC(=N)N)C(=O)N[C@@H](CCCNC(=N)N)C(=O)N[C@@H](C)C(=O)N[C@@H](CCC(N)=O)C(=O)N[C@@H](CC(=O)O)C(=O)N[C@@H](Cc1ccccc1)C(=O)N[C@H](C(=O)N[C@@H](CCC(N)=O)C(=O)N[C@@H](Cc1c[nH]c2ccccc12)C(=O)N[C@@H](CC(C)C)C(=O)N[C@@H](CC(C)C)C(=O)N[C@@H](CC(N)=O)C(=O)N[C@H](C(=O)NCC(=O)NCC(=O)N1CCC[C@H]1C(=O)N[C@@H](CO)C(=O)N[C@@H](CO)C(=O)NCC(=O)N[C@@H](C)C(=O)N1CCC[C@H]1C(=O)N1CCC[C@H]1C(=O)N1CCC[C@H]1C(=O)N[C@@H](CO)C(N)=O)[C@@H](C)O)C(C)C)C(=O)O` has an MRT of 5.85 h (rhesus monkey, plasma; subcutaneous, 20 µg/kg, single dose).
`O=C(/C=C/c1ccc(O)c(O)c1)O[C@@H]1Cc2c(O)cc(O)cc2O[C@@H]1c1ccc(O)c(O)c1` has a Kd of 4.29 µM (rep main protease; binding, SPR).
`O=C(Cc1n[nH]c(=O)c2ccccc12)Nc1ccc(NS(=O)(=O)c2ccc3c(c2)OCCO3)cc1` has a Kd of over 39 µM (Replicase polyprotein 1ab, nsp12 RdRp (rep, Severe acute respiratory syndrome coronavirus 2, UniProt P0DTD1); binding).
`CNC(=O)C[C@H](Cc1ccc(F)cc1)NC(=O)[C@@H](Cc1ccc(Cl)cc1Cl)NC(=O)[C@H](N)Cc1ccccc1C#N` gave a Kd of 0.434 µM (rep main protease; binding, SPR).
The Kd of `Nc1ncnc2c1ncn2[C@@H]1O[C@H](CSCCNC(=O)NCC2CCCCC2)[C@@H](O)[C@H]1O` is reported as 2.4 µM (rep nsp14; binding to nsp14, surface plasmon resonance).
With `O=C(/C=C/c1ccc(O)c(O)c1)O[C@@H]1Cc2c(O)cc(O)cc2O[C@@H]1c1cc(O)c(O)c(O)c1` the Kd was 2.81 µM (rep main protease; binding, SPR).
The Kd of `CC(=O)N[C@@H](Cc1ccc(O)cc1)C(=O)N[C@@H](CC(=O)O)C(=O)NCCC(=O)N[C@@H](Cc1ccccc1)C(=O)N[C@@H](Cc1ccc(O)cc1)C(=O)NCCC(=O)N[C@@H](Cc1ccc(O)cc1)C(=O)N[C@H](C(=O)N[C@H](C(=O)N[C@@H](Cc1ccccc1)C(=O)N[C@@H](Cc1c[nH]cn1)C(=O)N[C@H](C(=O)N[C@@H](C)C(=O)N[C@H](C(N)=O)[C@@H](C)O)C(C)C)[C@@H](C)O)C(C)C` is reported as 0.0164 µM (rep main protease; binding, SPR).
The Kd of `CC(C)(C)c1ccc(NC(=O)NCCC[C@H](CNCc2ccccc2)C[C@H]2O[C@@H](n3cnc4c(N)ncnc43)[C@H](O)[C@@H]2O)cc1` is reported as 18.9 µM (rep nsp14; binding to nsp14, surface plasmon resonance).
The Kd of `CC(=O)Oc1ccc(/C=C/C(=O)O[C@@H]2Cc3c(O)cc(O)cc3O[C@@H]2c2ccc(O)c(O)c2)cc1` is reported as 3.61 µM (rep main protease; binding, SPR).
With `Oc1c(Br)cc(Br)c2cccnc12` the Kd was 0.2 µM (Replicase polyprotein 1ab, papain-like protease (rep, Severe acute respiratory syndrome coronavirus 2, UniProt P0DTD1); binding, SPR).
`Nc1nc(O)c2c(n1)NC(=O)CC2c1ccc(-c2ccccc2)cc1` (stereo not drawn) gave a Kd of 65.4 ± 3.8 µM (Replicase polyprotein 1ab, nsp3 macrodomain (rep, Severe acute respiratory syndrome coronavirus 2, UniProt P0DTD1); binding, microscale thermophoresis; 4% DMSO).
